# Experimental data of several laboratories.
# Compare with care: the assays were run in different laboratories. “And” joins repeats or separate records; there may be more than shown. Numbers after ± are the reported error.
# TRPM8: Transient receptor potential cation channel subfamily M member 8 (TRPM8, Homo sapiens, UniProt Q7Z2W7)
# Kir3.1/Kir3.2: Kir3.1/Kir3.2 (Homo sapiens, UniProt P48051+P48549)
# FFAR4: Free fatty acid receptor 4 (FFAR4, Homo sapiens, UniProt Q5NUL3)
# GAP50: Glideosome-associated protein 50 (GAP50, Plasmodium falciparum, UniProt Q8I2X3)
# NADH dehydrogenase [ubiquinone] iron-sulfur protein 7, mitochondrial/NADH dehydrogenase [ubiquinone] iron-sulfur protein 2, mitochondrial/MT-ND1: NADH dehydrogenase [ubiquinone] iron-sulfur protein 7, mitochondrial/NADH dehydrogenase [ubiquinone] iron-sulfur protein 2, mitochondrial/MT-ND1 (Homo sapiens, UniProt O75251+O75306+P03886)
# PDE1C isoform PDE1C2: Dual specificity calcium/calmodulin-dependent 3',5'-cyclic nucleotide phosphodiesterase 1C, isoform PDE1C2 (PDE1C, Homo sapiens, UniProt Q14123)
# CXCR4: C-X-C chemokine receptor type 4 (CXCR4, Homo sapiens, UniProt P61073)
Structure (SMILES),target,test,system,setting,scale,endpoint,value
NCCCCC(=O)O,"uncharacterized protein (Pelagibacter ubique, UniProt Q4FKZ8)",differential scanning fluorimetry,Candidatus Pelagibacter ubique,in-house screen,,thermal shift,3.57 °C
COc1cc(F)ccc1-c1ncnc(Nc2cccc(C[S@](C)(=N)=O)c2)n1,"ROCK1 (Homo sapiens, UniProt Q13464)",kinase activity,,"10 µM, with: 10 µM ATP",,remaining activity,93%
c1ccc(-c2[nH]ncc2-c2ccnc3ccccc23)nc1,TRPM8,antagonist,HEK293,5 µM,baseline: control,remaining activity,105 ± 6.32%
Cc1cc(NC(=O)C2CCc3cc(F)ccc3O2)n(C2CCS(=O)(=O)C2)n1 (stereo not drawn),Kir3.1/Kir3.2,"thallium flux, activator",HEK293,,baseline: standard compound,Emax,43%
Nc1ncnc2c1ncn2[C@@H]1O[C@H](COP(=O)(O)CP(=O)(O)OP(=O)(O)O)[C@@H](O)[C@H]1O,"P2X purinoceptor 1 (P2RX1, Homo sapiens, UniProt P51575, K140A)",calcium influx,,10 nM,baseline: ionomycin response,calcium influx,0% and 0.0282%
CCCCCCCCNc1cc(=O)[nH]c(=O)[nH]1,FFAR4,"antagonist, β-arrestin recruitment",CHO cells,10 µM,,inhibition,22 ± 9%
O[C@@H](c1cc(C(F)(F)F)nc2c(C(F)(F)F)cccc12)[C@H]1CCCCN1,GAP50,"binding, surface plasmon resonance",,1:1 binding model,,koff,0.442 s⁻¹
CN(C)c1ccc2nc3ccc(=[N+](C)C)cc-3sc2c1,"MAPT (Homo sapiens, UniProt P10636)",ThT fluorescence,,"0.1-fold over protein, 30 h, with: tau 10 µM, heparin",baseline: untreated,fibrillization plateau fluorescence,51 ± 5%
CC[C@@H]1[C@H](F)C(=O)N[C@@H]1COc1nccc2cc(C(N)=O)c(OC)cc12,"RPS6KA1 (Homo sapiens, UniProt Q15418)","ATP probe binding, KiNativ profiling, measured: domain 1 activation loop",THP-1 cell lysate,0.01 mM,,inhibition,18.6%
COc1c(Nc2cc(C(F)(F)F)cc(C(F)(F)F)c2)c(=O)c1=O,"CD209 antigen (CD209, Homo sapiens, UniProt Q9NNX6)","binding, grating-coupled interferometry","Man(α1,2)Man-PEG3 chip",,,Hill slope,2.8
NC(=O)NOCCCCCCCCCCCCCCCC[P+](c1ccccc1)(c1ccccc1)c1ccccc1.O=C([O-])C(F)(F)F,"NADH dehydrogenase [ubiquinone] iron-sulfur protein 7, mitochondrial/NADH dehydrogenase [ubiquinone] iron-sulfur protein 2, mitochondrial/MT-ND1","complex I-dependent respiration, Seahorse XF96",HCT-116,"0.4 µM, 24 h",baseline: control,oxygen consumption rate,69.3 ± 7.08%
CCN1CCN(c2cc(N3CCN(CC)CC3)nc(NCCNc3ccnc4cc(Cl)ccc34)n2)CC1,"Nuclear receptor subfamily 4 group A member 2, LBD (Homo sapiens, UniProt P43354)","reporter gene, Gal4 hybrid reporter",,10 µM,baseline: vehicle,activation,1.43 ± 0.06 fold
O=C1NC(=O)C(c2cn(CCCO)c3ncccc23)=C1c1cnccn1,TRPM8,antagonist,HEK293,5 µM,baseline: control,remaining activity,106 ± 2.5%
NC(=O)NO,"NADH dehydrogenase [ubiquinone] iron-sulfur protein 7, mitochondrial/NADH dehydrogenase [ubiquinone] iron-sulfur protein 2, mitochondrial/MT-ND1","complex I-dependent respiration, Seahorse XF96",HCT-116,"300 µM, 24 h",baseline: control,oxygen consumption rate,85.7 ± 3.16%
Cc1ccc2oc(-c3cc(NC(=O)Cc4ccccc4)ccc3Cl)nc2c1,GAP50,"binding, surface plasmon resonance",,1:1 binding model,,kon,102000 M⁻¹ s⁻¹
COC(=O)c1cn(C)c2ccc(-c3cccnc3)cc12,"Nuclear receptor subfamily 4 group A member 2, LBD; with RXRα (Homo sapiens, UniProt P43354)","reporter gene, full-length heterodimer DR5 reporter",,10 µM,baseline: vehicle,activation,0.95 fold
NCCCCC(=O)O,"SLC6A6 (Homo sapiens, UniProt P31641, G62A)","binding, microscale thermophoresis",,"62.5 µM, room temperature, with: 50 nM labelled protein",higher = more binding,normalised MST signal,-0.0265
CN(CCCCCCNC(=O)COc1ccc(C2CCC(=O)NC2=O)cc1)Cc1cn(Cc2ccc(C(=O)NO)cc2)c2ccccc12.O=C(O)C(F)(F)F (stereo not drawn),"HDAC10 (Homo sapiens, UniProt Q969S8)","degrader, western blot",MM1.S,"1 µM, 24 h",,degradation,75%
[2H]C([2H])(N)c1ccc(C(F)(F)F)cc1,"Maoa (Rattus norvegicus, UniProt P21396)","kcat pH profile ES complex, substrate",,pH 6.5-9.5,,pKa,7.6 ± 0.1
CC(C)(C)c1cnc(CSc2cnc(NC(=O)C3CCN(C(=O)CCCCCCCN4Cc5cc6c(cc5C4)C(=O)N(C4CCC(=O)NC4=O)C6=O)CC3)s2)o1 (stereo not drawn),"CDK9 (Homo sapiens, UniProt P50750)","degrader, Western blot",TC-71,"20 nM, 4 h, with: pretreatment with MG132, MLN4924 or thalidomide 2 h",,CDK9 degradation,inhibited
O=c1cc(NCCCCCCO)[nH]c(=O)[nH]1,FFAR4,"antagonist, β-arrestin recruitment",CHO cells,"10 µM, with: 4 µM TUG-891",,inhibition,13 ± 1%
O=c1nc(SCc2cc(F)cc(C(F)(F)F)c2)nc(SCc2ccc3sccc3c2)[nH]1,"TOP2A (Homo sapiens, UniProt P11388)","DNA cleavage, competition with etoposide",,"31.25 µM, with: etoposide 50 µM",,linear DNA,24.4% and 21.2%
COc1ccc([C@@H]2CC(c3cccs3)=NN2C(=O)c2ccco2)cc1OC,GAP50,"binding, surface plasmon resonance",,1:1 binding model,,kon,22100 M⁻¹ s⁻¹
Cc1nn(C2CCS(=O)(=O)C2)c(C)c1NC(=O)COc1cc(Cl)ccc1Cl (stereo not drawn),Kir3.1/Kir3.2,"activator, thallium flux",HEK293,concentration not given,,activity,inactive
CC1=NN(c2ccc(F)cc2)C(=O)C1=NNc1ccc(S(N)(=O)=O)cc1,"Alpha-amylase (Bos taurus, UniProt Q3MHH8)","enzyme activity, inhibitor, glucose oxidase",,"200 µg/mL, with: dextrin",,inhibition,13.2%
C#CCN(CCCN1CCN(C2CCCCC2)CC1)CC(=O)Nc1ccc(C(=O)c2ccccc2)cc1,"TMEM97 (Homo sapiens, UniProt Q5BJF2)",radioligand binding,RT-4 cell membranes,,baseline: sigma1 Ki over sigma2 Ki,Ki ratio,8.03
O=c1cc(NCCc2ccccc2Cl)[nH]c(=O)[nH]1,FFAR4,"antagonist, β-arrestin recruitment",CHO cells,10 µM,,inhibition,9 ± 2%
COc1cc2ncc(-c3ccccc3)nc2cc1OC,TRPM8,antagonist,HEK293,5 µM,baseline: control,remaining activity,106 ± 9.63%
O=Nc1c(NCCc2ccccc2)[nH]c(=O)[nH]c1=O,FFAR4,"agonist, β-arrestin recruitment",CHO cells,10 µM,baseline: 30 µM TUG-891,agonist effect,1 ± 1%
COc1ccc(F)cc1C(=O)NCc1ccc(-c2nn([C@@H](C)C(F)(F)F)c(N)c2C(N)=O)cc1,"Tyrosine-protein kinase BTK, SH3-SH2-kinase domains (BTK, Homo sapiens, UniProt Q06187)",differential scanning fluorimetry,,with: BTK inhibitor 100 µM,,melting temperature,54.5 °C
C=CC(=O)N1CCC(COCC(=O)N2CCN(c3nc(-c4cnc(N)nc4C(F)F)nc(N4CCOC[C@@H]4C)n3)CC2)CC1,"ACVR2A (Homo sapiens, UniProt P27037)",KINOMEscan,,1 µM,,remaining binding,92%
Cc1cc2c(c(=O)[nH]1)C(=O)O/C2=C\c1cc(F)ccc1OCCN1CCOCC1,PDE1C isoform PDE1C2,"enzyme activity, inhibitor",,with: 3H-cGMP substrate,,ligand efficiency,0.35
O=c1cc(NCCc2cccc(F)c2)[nH]c(=O)[nH]1,FFAR4,"antagonist, β-arrestin recruitment",CHO cells,"10 µM, with: 4 µM TUG-891",,inhibition,11 ± 5%
CCOc1ccccc1C(=O)Nc1noc2ccccc12,"3-oxoacyl-[acyl-carrier-protein] reductase FabG (fabG, Pseudomonas aeruginosa, UniProt O54438)","enzyme activity, inhibitor, NADPH fluorescence",,"reverse reaction, with: 3-OH-decanoyl-NAC, NADP",,Hill slope,1.8
Cc1ccc2c(c1C)NC(=O)[C@]21NN=C(c2ccccc2)S1,GAP50,"binding, surface plasmon resonance",,1:1 binding model,,koff,0.0017 s⁻¹
COc1ccc(CCNc2cc(=O)[nH]c(=O)[nH]2)cc1OC,FFAR4,"agonist, β-arrestin recruitment",CHO cells,10 µM,,activation,1 ± 1%
Cc1cc2c(c(=O)[nH]1)C(=O)O/C2=C\c1cc(Cl)ccc1OC(C)C,PDE1C isoform PDE1C2,"enzyme activity, inhibitor",,with: 3H-cGMP substrate,,ligand efficiency,0.42
COc1cc(O)c2c(c1)oc(=O)c1c3cc(O)c(O)cc3oc21,"MAL12 (Saccharomyces cerevisiae S288c, UniProt P53341)",fluorescence quenching,,307 K,,ΔS,-318 J/(mol·K)
CC1=C(/C=C/C(C)=C/C=C/C(C)=C/C=C/C=C(C)/C=C/C=C(C)/C=C/C2=C(C)CCCC2(C)C)C(C)(C)CCC1,"Beta-lactoglobulin (LGB, Bos taurus, UniProt P02754)",fluorescence quenching,,"concentration not given, 308 K",,number of binding sites,1.49
Cc1ccc(S(=O)(=O)NCc2ccc(CNC(=O)c3ccc([N+](=O)[O-])cc3)cc2)cc1,CXCR4,"binding, inhibitor, competitive binding",MDA-MB-231,with: biotinylated TN14003,,EC,10 nM
CC(C)NCCCC[C@H](NC(=O)[C@H]1CCC(=O)N[C@@H](Cc2ccccc2)C(=O)N[C@@H](Cc2ccc(O)cc2)C(=O)N[C@@H](CCCCNC(C)C)C(=O)N[C@H](CCCNC(=N)N)C(=O)N[C@@H](Cc2ccc3ccccc3c2)C(=O)NCC(=O)N1)C(N)=O,CXCR4,,U87.CD4.CXCR4 cells,"75 µM, 1 h, with: [18F]AlF-NOTA-SC",,total cellular uptake,1.46 ± 0.02%
O=C(NC1CCC1)c1ccc2nc(-c3cccc(NS(=O)(=O)NCCN4CCCCC4)c3)cn2c1,"Protein ENL (MLLT1, Homo sapiens, UniProt Q03111)","degrader, immunoblot, measured: MLLT1",,"10 µM, 0 h",baseline: DMSO control,protein level,93%
COc1cc(Nc2ncc3c(n2)-c2ccc(Cl)cc2C(c2c(F)cccc2OC)=NC3)ccc1C(=O)O,MAP4K5,kinase activity,,1 µM,,remaining activity,110%
O=C(COP(=O)(O)O)[C@@H](O)[C@H](O)[C@H](O)COP(=O)(O)O,"Eukaryotic translation initiation factor 3 subunit H (Homo sapiens, UniProt O15372)","thermal proteome profiling, measured: EIF3H",HepG2 cell lysate,"concentration not given, 57 over 37 °C, mean",baseline: compound over control,thermal stability ratio,0.496
O=c1cc(NCc2ccccc2)[nH]c(=O)[nH]1,FFAR4,"agonist, β-arrestin recruitment",CHO cells,10 µM,baseline: 30 µM TUG-891,agonist effect,0%
C[C@H](CCCOc1ccc(C(=O)O)cc1)[C@H]1CC[C@H]2[C@@H]3CC=C4C[C@@H](O)CC[C@]4(C)[C@H]3CC[C@]12C,"NR1H2 (Homo sapiens, UniProt P55055)","reporter gene, GAL4-LBD transactivation",HepG2,,,efficacy,11.8 ± 1.6%
"CO[C@@H](C(=O)N1Cc2c(-c3ccc(C(=O)N4CCCc5ccccc54)cc3)cnn2C[C@H]1C(C)C)c1cnn(C)c1 (single isomer, unassigned)","PRKN (Human, UniProt O60260)",nanoDSF,,200 µM,baseline: DMSO,ΔTm,-1.7 °C
O=c1cc(NCCc2ccccc2)[nH]c(=O)[nH]1,FFAR4,"agonist, β-arrestin recruitment",CHO cells,10 µM,,activation,2 ± 1%
Nc1nc2c(ncn2[C@@H]2O[C@H](COP(=O)(O)O)[C@@H](O)[C@H]2O)c(=O)[nH]1,"GUK1 (Homo sapiens, UniProt Q16774, S37P)","enzyme activity, NADH-coupled",,2000 µM,,reaction rate,2.56 s⁻¹ and 0.46 s⁻¹ and 2.47 s⁻¹
NC(=O)NOCCCCCCCCCCCCCC[P+](c1ccccc1)(c1ccccc1)c1ccccc1.O=C([O-])C(F)(F)F,"NADH dehydrogenase [ubiquinone] iron-sulfur protein 7, mitochondrial/NADH dehydrogenase [ubiquinone] iron-sulfur protein 2, mitochondrial/MT-ND1","complex I-dependent respiration, Seahorse XF96",HCT-116,"2 µM, 24 h",baseline: control,oxygen consumption rate,27.6 ± 4.49%
Nc1ncnc2c1nc(Br)n2[C@@H]1O[C@@H]2COP(=O)(O)O[C@H]2[C@H]1O,anti-cAMP antibody,"antibody binding, competitive cAMP EIA",,"concentration not given, acetylated samples","baseline: EC50 cAMP over EC50 cpd, higher = stronger binding",relative binding affinity,0.0043
